Experimental data collected from several papers.
Parts stem from different laboratories: compare values within a part only.

Study 1 — method: protein-binding microarray; molecule type: double-stranded DNA, one strand shown; medium: in vitro; tested at: 0.8 µM; notes: whole 60-bp probe, no competitor; direction: higher = stronger binding
Target: Centromere-binding protein 1, full length, N-terminal tag (CBF1, Saccharomyces cerevisiae, UniProt P17106, residues 1-351)
Sequence of UniProt P17106 (whole entry, looked up): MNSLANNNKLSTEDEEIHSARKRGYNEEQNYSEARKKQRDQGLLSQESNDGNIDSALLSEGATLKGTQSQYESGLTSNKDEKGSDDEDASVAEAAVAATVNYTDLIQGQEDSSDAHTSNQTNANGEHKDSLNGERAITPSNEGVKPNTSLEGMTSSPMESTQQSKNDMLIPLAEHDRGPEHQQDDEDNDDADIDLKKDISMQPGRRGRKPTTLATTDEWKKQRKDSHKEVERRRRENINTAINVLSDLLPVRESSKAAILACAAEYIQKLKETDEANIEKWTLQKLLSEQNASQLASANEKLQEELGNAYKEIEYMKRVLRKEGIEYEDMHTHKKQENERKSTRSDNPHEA
Sequence	fluorescence intensity
CTATGTAAAAACACCCACGAGTGCATACCACTTTTCGTCTTGATTCGCTTGACGCTGCTG	572 a.u.
CTACAGTCGCTTTAATGCGTGATTATAGAAAAGTTCGTCTTGATTCGCTTGACGCTGCTG	673 a.u.
GAAAGTCAATTGATTAACGTGCTAATGTAGATTTAGGTCTTGATTCGCTTGACGCTGCTG	560 a.u.
GAACCTATTATGAGCGTCACGATGGGACTTTAATAGGTCTTGATTCGCTTGACGCTGCTG	659 a.u.

Study 2 — method: universal PBM; molecule type: double-stranded DNA, one strand shown; medium: in vitro; tested at: not given; direction: higher = stronger binding
Target: Sal-like protein 4, full length isoform B (SALL4, Homo sapiens, UniProt Q9UJQ4-2, residues 1-616)
Notes: 8-mer, flanks averaged, mean of replicates
Construct (chain): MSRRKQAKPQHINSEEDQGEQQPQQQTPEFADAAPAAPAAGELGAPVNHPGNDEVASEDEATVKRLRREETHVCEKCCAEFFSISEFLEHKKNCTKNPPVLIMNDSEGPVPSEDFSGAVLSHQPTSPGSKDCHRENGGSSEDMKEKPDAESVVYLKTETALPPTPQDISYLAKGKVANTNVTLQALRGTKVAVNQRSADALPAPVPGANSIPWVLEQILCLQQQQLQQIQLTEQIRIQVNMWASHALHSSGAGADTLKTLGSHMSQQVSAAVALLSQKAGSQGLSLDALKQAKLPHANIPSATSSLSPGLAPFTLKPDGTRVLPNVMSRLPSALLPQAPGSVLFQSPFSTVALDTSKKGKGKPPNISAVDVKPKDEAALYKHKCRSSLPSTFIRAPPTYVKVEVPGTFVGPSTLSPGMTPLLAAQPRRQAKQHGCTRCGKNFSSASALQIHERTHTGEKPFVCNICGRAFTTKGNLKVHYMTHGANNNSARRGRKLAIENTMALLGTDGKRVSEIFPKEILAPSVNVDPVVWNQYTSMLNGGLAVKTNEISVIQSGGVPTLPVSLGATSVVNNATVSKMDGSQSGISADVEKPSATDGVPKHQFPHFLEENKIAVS
Sequence	E-score
AACCTCCA	-0.0153
CGGTCTGC	-0.336
GCGCTAGC	-0.222
GCTAAAAA	0.135
CGATCACG	-0.0581
CTCTGCAG	-0.188
ACTGGCTA	-0.147

Study 3 — method: protein binding microarray; molecule type: double-stranded DNA, one strand shown; medium: in vitro; tested at: not given; reference: not given; direction: higher = stronger binding
Target: Histone acetyltransferase KAT6A, winged helix 2, GST fusion (KAT6A, Homo sapiens, UniProt Q92794, residues 85-181)
Notes: 8-mer, flanks averaged, mean of 2 arrays, mostly near background
Construct (chain): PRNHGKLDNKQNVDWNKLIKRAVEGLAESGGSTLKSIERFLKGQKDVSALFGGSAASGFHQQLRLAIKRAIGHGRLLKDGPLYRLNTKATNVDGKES
Sequence	E-score
GAGAAGGC	0.0894
GACGTCGC	-0.0752
CGCCATTC	0.0122
AAGGATAA	-0.127
CCATATCG	-0.075
GATTCATA	-0.146
CGACTAAA	-0.211

Other studies, line by line
Molecule	target	assay	system	setting	how to read	quantity	value
PhoQ, residues 284 288 289 292 302 303 ALVSVA	PhoP, residues 12 14 15 18 19 GHCSL (Escherichia coli, UniProt P23836)	Sort-seq, item: YFP reporter	E. coli	PhoQ-PhoP variant library, with: 10 µM Mg2+	reference: high Mg2+ state, higher = stronger signaling	fold induction	17.2

Repeated from above (study 3):
Sequence	E-score
AAGGATAA	-0.127
CCATATCG	-0.075
